Measurements collected from several papers.
Protocols differ between the studies behind these lines.
Cell line: SR

SMILES | test | conditions | scale | measurement | result
CCCCN1CCN(c2ccc3[nH]c(-c4ccc5[nH]c(-c6cc(OC)c(OC)c(OC)c6)nc5c4)nc3c2)CC1 | SRB | 10 µM, 48 h |  | growth percent | 10.7%
Cc1cc(C)n(-c2nc(-c3ccc(Cl)cc3)c3c(NC(=O)c4ccccc4)nnc-3[nH]2)n1 | SRB | 10 µM, NCI60 single-dose screen | reference: untreated | cell growth | 67.8%
CCCCN1CCN(c2ccc3[nH]c(-c4ccc5[nH]c(-c6ccc(C(F)(F)F)cc6)nc5c4)nc3c2)CC1 | SRB | 10 µM, 48 h |  | growth percent | -46.8%
CCOC(=O)CSc1nc(-c2ccc(Cl)cc2)c2c(NC(=O)c3ccccc3)nnc-2[nH]1 | SRB | 10 µM, NCI60 single-dose screen | reference: untreated | cell growth | 84.9%
CCCCN1CCN(c2ccc3[nH]c(-c4ccc5[nH]c(-c6ccc(OCC)c(OCC)c6)nc5c4)nc3c2)CC1 | SRB | 10 µM, 48 h |  | growth percent | 14.3%
COC(=O)/C=C1\C(=O)C=C2C3CC4CC(CCC4(C)N21)C3(C)NC(C)=O (stereo not drawn) | cell growth | NCI screen |  | IC50 | 18.3 µM
CCCN1CCN(c2ccc3[nH]c(-c4ccc5[nH]c(-c6ccc(C(F)(F)F)cc6)nc5c4)nc3c2)CC1 | SRB | 10 µM, 48 h |  | growth percent | -35.5%
O=c1ccn(Cc2cn(-c3cc4ccccc4oc3=O)nn2)c(=O)[nH]1 | NCI60 single-dose screen | 10 µM |  | growth percentage | 114%
CCN(CC)c1ccc(C=NNC(=O)CSc2nc3ccccc3c(=O)n2Cc2ccc(S(N)(=O)=O)cc2)c(O)c1 | NCI five-dose screen |  |  | TGI | > 100 µM
CCCCN1CCN(c2ccc3[nH]c(-c4ccc5[nH]c(-c6ccc(OCC)cc6)nc5c4)nc3c2)CC1 | SRB | 10 µM, 48 h |  | growth percent | -1.98%
O=C1NC(c2ccccc2)(c2ccccc2)C(=O)N1Cc1cn(-c2c3ccccc3nc3ccccc23)nn1 | NCI60 single-dose screen | 10 µM |  | growth percentage | 31.4%
O=C(Nc1nnc2n3c(nc(-c4ccc(Cl)cc4)c1-2)SCC3=O)c1ccccc1 | SRB | 10 µM, NCI60 single-dose screen | reference: untreated | cell growth | 86%
Cc1cc(=O)[nH]c(=O)n1Cc1cn(-c2cc3ccccc3oc2=O)nn1 | NCI60 single-dose screen | 10 µM |  | growth percentage | 113%
CSc1nc(-c2ccc(Cl)cc2)c2c(NC(=O)c3ccccc3)nnc-2[nH]1 | SRB | 10 µM, NCI60 single-dose screen | reference: untreated | cell growth | 83.2%
S=C([S][Au-][P+](CCCCCC[P+]([Au-][S]C(=S)n1cccn1)(c1ccccc1)c1ccccc1)(c1ccccc1)c1ccccc1)n1cccn1 | cell growth |  |  | GI50 | 0.186 µM

Repeated from above:
SMILES | test | conditions | scale | measurement | result
CCCCN1CCN(c2ccc3[nH]c(-c4ccc5[nH]c(-c6ccc(OCC)c(OCC)c6)nc5c4)nc3c2)CC1 | SRB | 10 µM, 48 h |  | growth percent | 14.3%
